Measured values from different studies.
Protocols differ between the studies behind these lines.

| SMILES | assay | test system | setting | quantity | result |
| --- | --- | --- | --- | --- | --- |
| C[C@]12CC[C@H](OC(=O)NC3CCNCC3)C[C@H]1CC[C@@H]1[C@@H]2CC[C@]2(C)[C@@H](c3ccc(=O)oc3)CC[C@]12O | – | male pigmented guinea pigs | intraperitoneal, 6 mg/kg | time to death | 24 h |
| CSCC[C@H](NC(=O)[C@H](CC(N)=O)NC(=O)[C@@H](N)Cc1ccccc1)C(=O)N[C@@H](CCC(N)=O)C(=O)N[C@@H](C)C(=O)N[C@@H](CCC(N)=O)C(=O)N[C@@H](CCCNC(=N)N)C(=O)N[C@@H](CCCNC(=N)N)C(=O)N[C@@H](Cc1ccccc1)C(=O)N[C@@H](Cc1ccc(O)cc1)C(=O)N[C@@H](CCC(=O)O)C(=O)N[C@@H](C)C(=O)N[C@@H](CC(C)C)C(=O)N[C@@H](Cc1c[nH]cn1)C(=O)N[C@@H](CC(=O)O)C(=O)NCC(=O)NCC(=O)NCC(=O)NCC(=O)N[C@@H](CO)C(=O)N[C@@H](C)C(=O)N[C@@H](CCC(=O)O)C(=O)N[C@@H](C)C(=O)N[C@@H](CCC(=O)O)C(=O)N[C@@H](C)C(=O)N[C@@H](CCCCN)C(=O)N[C@@H](C)C(=O)N[C@@H](CCCCN)C(=O)N[C@@H](C)C(=O)N[C@@H](CCC(=O)O)C(=O)N[C@@H](C)C(=O)N[C@@H](CCC(=O)O)C(=O)N[C@@H](C)C(=O)N[C@@H](CCCCN)C(=O)N[C@@H](C)C(=O)N[C@@H](CCCCN)C(=O)O | Congo red | PBS | – | time to microstructure formation | 3 h |
| CC[C@H](C)[C@@H]1NC(=O)[C@H](CC(N)=O)NC(=O)[C@@H]2CCCN2C(=O)[C@@H](NC(=O)[C@H](CC(N)=O)NC(=O)[C@@H](N)CCC(N)=O)COC(=O)[C@H](CCSC)NC(=O)[C@H](Cc2c[nH]c3ccccc23)NC(=O)[C@H](CCC(N)=O)NC(=O)CNC(=O)[C@H](Cc2ccccc2)NC1=O | item: pyroglutamyl ring-opened product | ammonium carbonate | pH 8, 25 °C | time to complete conversion | ≤ 24 h |
| CC[C@H](C)[C@@H]1NC(=O)[C@H](CCCCN)NC(=O)[C@H]([C@@H](C)O)NC(=O)[C@H](Cc2ccccc2)NC(=O)[C@H]([C@@H](C)CC)NC(=O)[C@@H]2CCCN2C(=O)[C@@H](N)CSSC[C@@H](C(=O)NCC(=O)NCC(=O)N[C@@H](CCCNC(=N)N)C(=O)N[C@@H](CCCNC(=N)N)C(=O)N[C@@H](CCCCN)C(=O)N[C@@H](CCCCN)C(=O)O)NC(=O)[C@H]([C@@H](C)O)NC(=O)CNC(=O)[C@H](CCC(N)=O)NC1=O | LC-MS | human serum 20% v/v | – | time to complete degradation | 2 h |
| CC[C@H](C)[C@H](NC(=O)CNC(=O)[C@H](C)NC(=O)[C@@H](NC(=O)CNC(=O)[C@H](CCCNC(=N)N)NC(=O)[C@@H](NC(=O)[C@H](CCCNC(=N)N)NC(=O)[C@H](CCC(=O)O)NC(=O)CNC(=O)[C@H](CCCNC(=N)N)NC(=O)[C@H](CCCCN)NC(=O)[C@H](C)NC(=O)[C@H](Cc1c[nH]cn1)NC(=O)CNC(=O)[C@H](CCCCN)NC(=O)[C@H](CCCNC(=N)N)NC(=O)[C@H](C)NC(=O)[C@H](Cc1ccc(O)cc1)NC(=O)[C@H](C)NC(=O)[C@H](CC(C)C)NC(=O)[C@H](CC(C)C)NC(=O)CN)C(C)C)[C@@H](C)O)C(=O)N[C@@H](CCCNC(=N)N)C(=O)N[C@@H](Cc1ccccc1)C(=O)N[C@@H](CC(C)C)C(=O)N[C@@H](Cc1ccc(O)cc1)C(=O)N[C@@H](C)C(=O)N[C@@H](C)C(=O)N1CCC[C@H]1C(=O)N[C@@H](CCCNC(=N)N)C(=O)N[C@@H](CCCNC(=N)N)C(=O)O | – | 100% human serum | 27 µM, 37 °C, heat-inactivated serum | time to complete proteolysis | 10 to 30 min |
| CC[C@H](C)[C@@H]1NC(=O)[C@H](Cc2ccc(O)cc2)NC(=O)[C@@H](N)Cc2cn(nn2)CCCC[C@@H](C(=O)N2CCC[C@H]2C(=O)N[C@@H](CC(C)C)C(=O)NCC(N)=O)NC(=O)[C@H](CC(N)=O)NC(=O)[C@H](CCC(N)=O)NC1=O | RP-HPLC | human pregnancy serum | 37 °C | time to disappearance | 10 days |
| CC[C@H](C)[C@H](NC(=O)[C@H](CC(C)C)NC(=O)[C@@H]1CCCN1C(=O)[C@H](CO)NC(=O)[C@@H](N)CC(C)C)C(=O)N[C@@H](Cc1ccccc1)C(=O)N[C@H](C(=O)N[C@H](C(=O)N[C@H](C(=O)N1CCC[C@H]1C(=O)N[C@@H](CC(=O)O)C(=O)N[C@H](C(=O)O)[C@@H](C)O)[C@@H](C)O)[C@@H](C)O)C(C)C | RP-HPLC | 10% mouse serum | 0.2 mM, 37 °C | time to complete degradation | ≤ 24 h |
| O=C(Cc1ccc2ccccc2c1)N[C@H](Cc1ccccc1)C(=O)N[C@H](Cc1ccc(OP(=O)(O)O)cc1)C(=O)N[C@H](Cc1ccccc1)C(=O)N[C@H](Cc1ccc(OP(=O)(O)O)cc1)C(=O)O | substrate | SAOS-2 cell lysate | 500 µM, pH 7.4, 37 °C | time to 50% dephosphorylation | ≤ 120 min |
| CSCC[C@H](NC(=O)[C@H](CO)NC(=O)[C@H](CCC(N)=O)NC(=O)[C@H](CCC(=O)O)NC(=O)[C@H](CCC(=O)O)NC(=O)CNC(=O)[C@H](CSSC[C@H](NC(=O)[C@H](CCCNC(=N)N)NC(=O)[C@@H]1CCCN1C(=O)[C@H](Cc1c[nH]cn1)NC(=O)[C@H](Cc1c[nH]c2ccccc12)NC(=O)[C@H](CCCCN)NC(=O)[C@H](Cc1ccccc1)NC(=O)[C@H](CC(C)C)NC(=O)CN)C(=O)NCC(=O)N[C@@H](CCC(=O)O)C(=O)N[C@@H](CCC(=O)O)C(=O)N[C@@H](CCC(N)=O)C(=O)N[C@@H](CO)C(=O)N[C@@H](CCSC)C(=O)N[C@@H](Cc1c[nH]c2ccccc12)C(=O)N[C@H](C(=O)O)[C@@H](C)O)NC(=O)[C@H](CCCNC(=N)N)NC(=O)[C@@H]1CCCN1C(=O)[C@H](Cc1c[nH]cn1)NC(=O)[C@H](Cc1c[nH]c2ccccc12)NC(=O)[C@H](CCCCN)NC(=O)[C@H](Cc1ccccc1)NC(=O)[C@H](CC(C)C)NC(=O)CN)C(=O)N[C@@H](Cc1c[nH]c2ccccc12)C(=O)N[C@H](C(=O)O)[C@@H](C)O | – | plasma | 37 °C | time to complete degradation | 10 h |
| COc1cc2ccnc(Cc3ccc(O[11CH3])c(OC)c3)c2cc1OC | PET | rhesus macaque, brain | intravenous, dose not given | time to peak radioactivity | ~3 min |
| CCC(C)C(=O)OC1C2C3(C)CCC(OC4CC(OC)C(OC5OC(C)C(OC6OC(CO)C(O)C(O)C6O)C(OC)C5O)C(C)O4)CC3CCC23OC32CCC(C(C)=O)C2(C)C1OC(C)=O (centres unmarked) | – | pooled human faecal microbiota | 50 µM, 37 °C, anaerobic | time to complete conversion | ≤ 8 h |
| CSCC[C@@H]1NC(=O)[C@H](CCC(=O)O)NC(=O)[C@H](CC(C)C)NC(=O)[C@H](CC(C)C)NC(=O)[C@H](CCCCN)NC(=O)[C@H](CC(=O)O)NC(=O)[C@H](CC(=O)O)NC(=O)[C@H](CC(N)=O)NC(=O)[C@H](CC(=O)O)NC(=O)[C@@H]2CSSC[C@@H]3NC(=O)[C@H]([C@@H](C)O)NC(=O)[C@H](C(C)C)NC(=O)[C@@H]4CCCN4C(=O)[C@H](CSSC[C@H](NC(=O)[C@H](CC(=O)O)NC(=O)[C@H](Cc4ccccc4)NC(=O)[C@H](CC(N)=O)NC(=O)[C@H](CCCCN)NC(=O)[C@H](CCC(=O)O)NC(=O)[C@H](CC(=O)O)NC(=O)[C@H](C)NC(=O)[C@@H](NC(=O)[C@H](Cc4c[nH]cn4)NC(=O)[C@@H](N)CCC(=O)O)CSSC[C@@H](C(N)=O)NC(=O)[C@H](Cc4ccccc4)NC(=O)CNC3=O)C(=O)N[C@@H](CCCNC(=N)N)C(=O)N[C@@H](CCCNC(=N)N)C(=O)N[C@@H](CO)C(=O)N[C@@H](CC(C)C)C(=O)N[C@@H](CCCNC(=N)N)C(=O)N[C@@H](CC(N)=O)C(=O)NCC(=O)N[C@@H](CC(=O)O)C(=O)N2)NC(=O)[C@H](Cc2ccc(O)cc2)NC(=O)[C@H](Cc2ccc(O)cc2)NC(=O)CNC1=O | – | porcine simulated intestinal fluid | – | time to complete degradation | 24 h |
| CC[C@H](C)[C@@H]1NC(=O)[C@H](CC(N)=O)NC(=O)[C@@H]2CCCN2C(=O)[C@@H](NC(=O)[C@H](CC(N)=O)NC(=O)[C@@H](N)CCC(N)=O)COC(=O)[C@H](CCSC)NC(=O)[C@H](Cc2c[nH]c3ccccc23)NC(=O)[C@H](CCC(N)=O)NC(=O)CNC(=O)[C@H](Cc2ccccc2)N(C)C1=O | – | human plasma | 37 °C | time to complete degradation | 2 h |
| CCc1noc(CC)c1C(=O)O[C@H]1C(C)=C[C@]23C(=O)[C@@H](C=C(CO)[C@@H](O)[C@]12O)[C@H]1[C@@H](C[C@H]3C)C1(C)C | – | female IAF hairless guinea pigs | topical, 0.015% and 0.05% gel, single application | time to peak skin reaction | 24 h |
